# Experimental data of several laboratories.
# Every numbered part comes from another study and shows a few of its results, in no order.

# Series 1
# Target: Histone acetyltransferase KAT6A, both winged helices, GST fusion (KAT6A, Homo sapiens, UniProt Q92794, residues 1-181)
# Technique: protein binding microarray
# Molecule type: double-stranded DNA, one strand shown
# Medium: in vitro
# Tested at: not given
# Setting: 8-mer, flanks averaged, mean of 2 arrays, mostly near background
# Baseline: not given
# Direction: higher = stronger binding
# Residues (chain): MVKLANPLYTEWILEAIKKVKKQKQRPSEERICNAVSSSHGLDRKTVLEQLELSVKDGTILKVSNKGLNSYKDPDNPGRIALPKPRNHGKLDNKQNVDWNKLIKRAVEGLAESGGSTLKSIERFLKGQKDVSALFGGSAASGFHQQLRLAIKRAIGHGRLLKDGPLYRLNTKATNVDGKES
Strand,E-score
CGCACCCA,0.114
CCCCACAG,-0.231
CTTGTCGA,-0.0786

# Series 2
# Target: RNA binding protein fox-1 homolog 2, RRM domain, GST-SBP tag (RBFOX2, Homo sapiens, UniProt O43251-10, residues 100-194)
# Technique: RNA Bind-n-Seq
# Molecule type: RNA
# Medium: in vitro
# Tested at: 365 nM
# Setting: natural RNA segment, single round, ends assumed
# Baseline: no-protein control
# Direction: higher = stronger binding
# Target sequence (chain): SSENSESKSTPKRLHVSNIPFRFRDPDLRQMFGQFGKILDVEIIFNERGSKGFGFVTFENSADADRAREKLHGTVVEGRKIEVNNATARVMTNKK
Strand,RBNS enrichment (R)
GGGAGUUCUACAGUCCGACGAUCGAGGACAGGCCACUUGUGCUCAGAGAACCUCACCUCACCGCAGAAGUGGUGCCUCUUCCAGAAGACUCUGGAAGAUUACCUACUUGGGGGUAGGCCUUGGAGGGAAAUCUUGGAAUUCUCGGGUGCCAA,0.394
GGGAGUUCUACAGUCCGACGAUCACUGGGUCUUGUCUAUCUUGAUGGAGAAGAGGGGUUCCUGCCCAGGAUCUUACAACACAGCAAGUAGCAUAGAGCUCUUUCCUUCCUCUUUUUUGGGGAGGUUGGGGUCAUGGAAUUCUCGGGUGCCAA,0.505
GGGAGUUCUACAGUCCGACGAUCUGCUCUGCCAGGGCUGUAGCCAGGCAGGGCCCUAAGCCAGGGCUCCUGGACCCAGGCUUUCCCAUACCACGGGCCCAGGACUGUGGCUCCUUUUCUAAACCACCUCUGGGUGGAAUUCUCGGGUGCCAA,0.318
GGGAGUUCUACAGUCCGACGAUCGCGUUUAACAAACUAGCAUGAGGCCUUUCAUAUCUAAAUGCUGUGUGAUAGACAAUUUCAGCUAGCCACAUAUUGUAUUAUGAAAUUCAUAAAGAUUUUCAAUCAUUCAAUGGAAUUCUCGGGUGCCAA,0.513

# Series 3
# Target: Interferon regulatory factor 7, full length, phosphomimetic (IRF7, Homo sapiens, UniProt Q92985, residues 1-503, S471D/S472D/S475D/S476D/S477D/S483D/S484D/S487D)
# Chain of UniProt Q92985 (whole entry, unmodified, looked up): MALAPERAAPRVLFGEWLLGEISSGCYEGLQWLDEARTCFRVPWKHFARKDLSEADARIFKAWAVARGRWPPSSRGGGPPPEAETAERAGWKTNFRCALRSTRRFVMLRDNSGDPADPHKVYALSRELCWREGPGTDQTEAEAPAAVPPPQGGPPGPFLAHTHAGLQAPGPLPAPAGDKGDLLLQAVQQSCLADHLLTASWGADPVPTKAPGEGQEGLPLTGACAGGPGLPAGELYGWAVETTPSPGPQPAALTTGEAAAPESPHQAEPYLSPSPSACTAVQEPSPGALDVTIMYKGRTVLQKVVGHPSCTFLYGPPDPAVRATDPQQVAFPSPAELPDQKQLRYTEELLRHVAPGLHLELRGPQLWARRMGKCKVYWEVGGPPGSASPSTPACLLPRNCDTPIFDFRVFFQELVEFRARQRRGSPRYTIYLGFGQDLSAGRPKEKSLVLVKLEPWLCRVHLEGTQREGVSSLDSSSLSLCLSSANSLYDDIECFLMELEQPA
# Technique: protein-binding microarray
# Molecule type: double-stranded DNA, one strand shown
# Medium: in vitro
# Tested at: 2200 nM top
# Setting: 60-bp whole probe
# Together with: salmon DNA 0.4 mg/ml
# Baseline: random background probes
# Direction: higher = stronger binding
Strand,fitted relative affinity [z-score]
GCCTAGCACTTAGATCGCAGTTTCGATTAGTGCTAGGTCTTGATTCGCTTGACGCTGCTG,5.06
GCCTAGCACCTCTCCATGTGTTTAAAAAGGTGCTAGGTCTTGATTCGCTTGACGCTGCTG,1.04
GCCTAGCACAATGATTACATATATGTTGGTGTGCTAGTCTTGATTCGCTTGACGCTGCTG,0.368
GCCTAGCACTTAGGTATCATACTGCTTTAGTGCTAGGTCTTGATTCGCTTGACGCTGCTG,0.598

# Further values, each from its own experiment
Molecule,target,test,test system,conditions,how to read,endpoint,result
"PhoQ, residues 284 288 289 292 302 303 SLGVVW","PhoP, residues 12 14 15 18 19 NQAHL (Escherichia coli, UniProt P23836)","Sort-seq, refers to: YFP reporter",E. coli,"PhoQ-PhoP variant library, together with: 10 µM Mg2+","baseline: high Mg2+ state, higher = stronger signaling",fold induction,13.9

# Excerpt of the above (series 3):
Strand,fitted relative affinity [z-score]
GCCTAGCACCTCTCCATGTGTTTAAAAAGGTGCTAGGTCTTGATTCGCTTGACGCTGCTG,1.04
